# Assay results from different studies.
# Each numbered part is a random draw from the data of one study; scales do not carry over between parts.

# Series 1
# Target: Histone acetyltransferase KAT6A, winged helix 2, GST fusion (KAT6A, Homo sapiens, UniProt Q92794, residues 85-181)
# Technique: protein binding microarray
# Molecule type: double-stranded DNA, one strand shown
# Matrix: in vitro
# Tested at: not given
# Notes: 8-mer, flanks averaged, mean of 2 arrays, mostly near background
# Baseline: not given
# Reading: higher = stronger binding
# Construct (chain): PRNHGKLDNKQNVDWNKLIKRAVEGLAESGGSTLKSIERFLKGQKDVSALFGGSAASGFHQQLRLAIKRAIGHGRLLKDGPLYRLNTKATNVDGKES
Oligonucleotide,E-score
CCATTAGA,-0.075
GGCTGGCA,0.0192
ACTAAGAT,0.136
GTAACAAA,0.119

# Series 2
# Target: Sal-like protein 4, full length isoform A (SALL4, Homo sapiens, UniProt Q9UJQ4, residues 1-1053)
# UniProt Q9UJQ4, sequence (whole entry, looked up): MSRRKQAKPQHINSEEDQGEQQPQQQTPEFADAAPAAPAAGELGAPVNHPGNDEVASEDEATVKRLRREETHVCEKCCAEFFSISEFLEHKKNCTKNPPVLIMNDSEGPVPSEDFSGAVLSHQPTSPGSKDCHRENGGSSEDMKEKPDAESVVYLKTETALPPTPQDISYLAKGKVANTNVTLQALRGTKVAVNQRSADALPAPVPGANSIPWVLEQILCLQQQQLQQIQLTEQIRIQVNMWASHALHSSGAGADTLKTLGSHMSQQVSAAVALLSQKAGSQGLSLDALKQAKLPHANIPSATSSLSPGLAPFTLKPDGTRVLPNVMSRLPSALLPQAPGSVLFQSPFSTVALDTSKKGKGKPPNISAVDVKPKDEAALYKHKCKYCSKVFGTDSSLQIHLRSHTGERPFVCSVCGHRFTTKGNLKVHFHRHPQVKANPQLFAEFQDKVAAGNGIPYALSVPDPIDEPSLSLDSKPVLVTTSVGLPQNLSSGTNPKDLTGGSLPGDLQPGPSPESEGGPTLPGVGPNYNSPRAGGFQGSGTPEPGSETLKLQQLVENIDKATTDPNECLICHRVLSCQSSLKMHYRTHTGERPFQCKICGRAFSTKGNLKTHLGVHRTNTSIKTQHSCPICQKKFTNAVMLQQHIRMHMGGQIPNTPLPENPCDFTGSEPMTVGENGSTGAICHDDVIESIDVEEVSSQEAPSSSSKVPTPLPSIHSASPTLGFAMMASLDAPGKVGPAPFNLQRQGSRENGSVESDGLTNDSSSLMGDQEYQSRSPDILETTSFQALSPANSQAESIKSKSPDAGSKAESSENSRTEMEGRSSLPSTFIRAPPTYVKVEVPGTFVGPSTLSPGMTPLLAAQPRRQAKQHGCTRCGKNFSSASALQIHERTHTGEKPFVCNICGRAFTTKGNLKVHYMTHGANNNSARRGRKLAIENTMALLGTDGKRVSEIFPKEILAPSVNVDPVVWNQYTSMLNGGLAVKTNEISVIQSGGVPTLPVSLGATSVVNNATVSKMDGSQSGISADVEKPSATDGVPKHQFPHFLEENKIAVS
# Technique: universal PBM
# Molecule type: double-stranded DNA, one strand shown
# Matrix: in vitro
# Tested at: 600 nM
# Notes: 8-mer, flanks averaged, mean of replicates
# Reading: higher = stronger binding
Oligonucleotide,E-score
TAAGCTGA,0.0302
AATAACGC,0.137
CAACAGAA,0.201

# Series 3
# Target: Centromere-binding protein 1, full length, N-terminal tag (CBF1, Saccharomyces cerevisiae, UniProt P17106, residues 1-351)
# UniProt P17106, sequence (whole entry, looked up): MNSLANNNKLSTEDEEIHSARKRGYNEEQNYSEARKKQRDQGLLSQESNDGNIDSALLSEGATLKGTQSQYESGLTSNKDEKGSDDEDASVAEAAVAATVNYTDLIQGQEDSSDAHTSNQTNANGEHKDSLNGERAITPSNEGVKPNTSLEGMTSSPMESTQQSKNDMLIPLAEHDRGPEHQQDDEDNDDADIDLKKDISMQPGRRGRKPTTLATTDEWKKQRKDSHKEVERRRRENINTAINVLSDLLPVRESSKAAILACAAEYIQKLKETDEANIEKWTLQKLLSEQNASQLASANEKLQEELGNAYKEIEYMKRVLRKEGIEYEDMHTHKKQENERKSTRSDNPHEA
# Technique: protein-binding microarray
# Molecule type: double-stranded DNA, one strand shown
# Matrix: in vitro
# Tested at: 0.8 µM
# Notes: whole 60-bp probe, no competitor
# Reading: higher = stronger binding
Oligonucleotide,fluorescence intensity [a.u.]
CTACTTCTTCATCGTGATGAGGTTGGCTATGATTTCGTCTTGATTCGCTTGACGCTGCTG,553
GAACATTTACTTGTCCTCCTGATTTGTTAATACTAGGTCTTGATTCGCTTGACGCTGCTG,735
GAAAGCCCATAAAACGTCGTGATAATCCGCAACTAGGTCTTGATTCGCTTGACGCTGCTG,538

# Further values, each from its own experiment
Molecule,target,test,system,conditions,how to read,measurement,result
"PhoQ, residues 284 288 289 292 302 303 TYGVAM","PhoP, residues 12 14 15 18 19 DLLYY (Escherichia coli, UniProt P23836)","Sort-seq, item: YFP reporter",E. coli,"PhoQ-PhoP variant library, together with: 10 µM Mg2+","baseline: high Mg2+ state, higher = stronger signaling",fold induction,0.663

# Some of these lines once more (series 2):
Oligonucleotide,E-score
CAACAGAA,0.201
